# Published values from different studies.
# Parts stem from different laboratories: compare values within a part only.
# UniProt P51668, sequence (whole entry, looked up): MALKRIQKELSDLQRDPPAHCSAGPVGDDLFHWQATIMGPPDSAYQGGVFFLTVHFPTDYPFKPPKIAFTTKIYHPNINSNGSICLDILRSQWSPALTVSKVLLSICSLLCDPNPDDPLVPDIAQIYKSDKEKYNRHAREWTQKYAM
# UniProt Q712K3, sequence (whole entry, looked up): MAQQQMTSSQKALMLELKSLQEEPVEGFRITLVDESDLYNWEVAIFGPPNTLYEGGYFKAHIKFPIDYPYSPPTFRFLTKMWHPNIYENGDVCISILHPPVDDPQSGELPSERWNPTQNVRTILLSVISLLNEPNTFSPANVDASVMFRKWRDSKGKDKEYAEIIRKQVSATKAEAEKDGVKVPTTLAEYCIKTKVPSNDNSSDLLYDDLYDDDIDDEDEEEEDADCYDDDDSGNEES
# UniProt Q9Y385, sequence (whole entry, looked up): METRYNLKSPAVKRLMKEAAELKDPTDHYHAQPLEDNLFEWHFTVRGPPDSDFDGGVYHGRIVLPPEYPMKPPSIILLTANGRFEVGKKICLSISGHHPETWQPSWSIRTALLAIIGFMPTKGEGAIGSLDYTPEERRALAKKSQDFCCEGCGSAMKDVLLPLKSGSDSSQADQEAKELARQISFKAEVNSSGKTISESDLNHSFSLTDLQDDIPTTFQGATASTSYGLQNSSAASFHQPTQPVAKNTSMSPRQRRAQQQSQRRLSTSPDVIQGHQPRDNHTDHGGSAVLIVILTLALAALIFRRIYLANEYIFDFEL
# UniProt P68036, sequence (whole entry, looked up): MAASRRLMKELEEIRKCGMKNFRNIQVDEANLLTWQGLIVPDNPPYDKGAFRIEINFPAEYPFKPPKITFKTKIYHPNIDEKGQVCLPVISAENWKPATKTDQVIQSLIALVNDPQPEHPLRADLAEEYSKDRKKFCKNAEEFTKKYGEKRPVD
# UniProt Q9C0C9, sequence (whole entry, looked up): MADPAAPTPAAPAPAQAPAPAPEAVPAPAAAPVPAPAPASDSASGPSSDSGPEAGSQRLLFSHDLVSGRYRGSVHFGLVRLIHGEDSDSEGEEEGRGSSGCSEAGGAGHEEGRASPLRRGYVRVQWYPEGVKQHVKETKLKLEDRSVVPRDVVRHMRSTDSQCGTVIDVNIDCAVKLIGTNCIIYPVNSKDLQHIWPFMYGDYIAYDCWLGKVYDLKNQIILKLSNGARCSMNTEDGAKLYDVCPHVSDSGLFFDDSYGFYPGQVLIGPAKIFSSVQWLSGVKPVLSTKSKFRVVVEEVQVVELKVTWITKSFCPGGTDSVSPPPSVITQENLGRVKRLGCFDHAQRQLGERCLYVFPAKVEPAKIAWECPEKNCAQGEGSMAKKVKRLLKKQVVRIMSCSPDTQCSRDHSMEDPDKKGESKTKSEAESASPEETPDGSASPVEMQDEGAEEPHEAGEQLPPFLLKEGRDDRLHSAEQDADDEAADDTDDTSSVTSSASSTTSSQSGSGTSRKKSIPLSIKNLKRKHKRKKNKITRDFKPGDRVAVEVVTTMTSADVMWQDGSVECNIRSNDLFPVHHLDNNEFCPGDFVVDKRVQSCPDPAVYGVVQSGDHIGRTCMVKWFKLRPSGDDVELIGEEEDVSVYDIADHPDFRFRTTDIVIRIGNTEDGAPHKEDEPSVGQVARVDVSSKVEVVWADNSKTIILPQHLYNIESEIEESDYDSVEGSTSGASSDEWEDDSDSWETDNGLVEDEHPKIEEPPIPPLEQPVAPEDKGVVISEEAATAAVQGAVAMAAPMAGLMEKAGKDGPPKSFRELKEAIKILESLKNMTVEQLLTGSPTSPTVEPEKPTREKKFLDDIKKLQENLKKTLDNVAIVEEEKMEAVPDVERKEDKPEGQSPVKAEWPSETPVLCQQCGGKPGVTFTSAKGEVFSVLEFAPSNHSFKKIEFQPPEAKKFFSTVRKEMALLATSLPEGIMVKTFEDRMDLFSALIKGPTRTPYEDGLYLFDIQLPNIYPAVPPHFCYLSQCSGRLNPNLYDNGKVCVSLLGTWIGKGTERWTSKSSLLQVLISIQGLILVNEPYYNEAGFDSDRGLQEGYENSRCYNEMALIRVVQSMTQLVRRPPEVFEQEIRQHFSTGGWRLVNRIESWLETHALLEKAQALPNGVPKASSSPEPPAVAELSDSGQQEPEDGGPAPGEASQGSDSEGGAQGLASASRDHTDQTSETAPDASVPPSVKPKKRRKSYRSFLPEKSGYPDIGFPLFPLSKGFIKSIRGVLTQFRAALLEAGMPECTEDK
# UniProt Q16763, sequence (whole entry, looked up): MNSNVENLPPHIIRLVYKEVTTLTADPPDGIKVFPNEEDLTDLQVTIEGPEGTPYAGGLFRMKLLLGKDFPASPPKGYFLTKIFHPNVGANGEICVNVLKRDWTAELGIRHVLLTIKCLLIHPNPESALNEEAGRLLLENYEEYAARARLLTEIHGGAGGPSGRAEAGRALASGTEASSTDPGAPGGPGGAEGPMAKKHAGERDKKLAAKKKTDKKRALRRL
# UniProt Q9H832, sequence (whole entry, looked up): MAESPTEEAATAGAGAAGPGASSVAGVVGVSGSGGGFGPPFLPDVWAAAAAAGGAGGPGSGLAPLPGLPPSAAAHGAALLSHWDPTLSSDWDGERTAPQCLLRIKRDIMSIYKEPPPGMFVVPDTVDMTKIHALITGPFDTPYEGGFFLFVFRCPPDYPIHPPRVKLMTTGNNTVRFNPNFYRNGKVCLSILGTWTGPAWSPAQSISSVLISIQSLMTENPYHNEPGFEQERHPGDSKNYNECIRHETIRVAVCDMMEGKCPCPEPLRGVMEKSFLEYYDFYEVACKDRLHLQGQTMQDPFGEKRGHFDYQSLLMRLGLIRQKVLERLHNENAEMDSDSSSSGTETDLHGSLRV
# UniProt Q7Z7E8, sequence (whole entry, looked up): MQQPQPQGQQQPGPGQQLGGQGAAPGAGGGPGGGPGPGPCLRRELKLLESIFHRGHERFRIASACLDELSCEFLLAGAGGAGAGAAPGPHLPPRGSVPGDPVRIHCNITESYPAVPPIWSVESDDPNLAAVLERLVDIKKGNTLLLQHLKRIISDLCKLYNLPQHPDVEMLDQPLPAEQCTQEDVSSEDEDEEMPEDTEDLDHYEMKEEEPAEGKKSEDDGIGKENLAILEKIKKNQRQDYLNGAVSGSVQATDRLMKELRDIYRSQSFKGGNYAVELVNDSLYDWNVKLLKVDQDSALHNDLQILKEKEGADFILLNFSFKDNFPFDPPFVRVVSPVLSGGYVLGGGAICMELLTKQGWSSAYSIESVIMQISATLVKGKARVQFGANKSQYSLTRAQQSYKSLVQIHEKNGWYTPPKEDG

# Series 1 — technique: RNA Bind-n-Seq; molecule type: RNA; sample: in vitro; concentration: 365 nM; relative to: no-protein control; direction: higher = stronger binding
# Target: RNA binding protein fox-1 homolog 2, RRM domain, GST-SBP tag (RBFOX2, Homo sapiens, UniProt O43251-10, residues 100-194)
# Notes: natural RNA segment, single round, ends assumed
# Residues (chain): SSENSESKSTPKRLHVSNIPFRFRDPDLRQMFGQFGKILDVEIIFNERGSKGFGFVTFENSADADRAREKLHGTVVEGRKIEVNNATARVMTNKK
Sequence,RBNS enrichment (R)
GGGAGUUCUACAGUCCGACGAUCUUUACCCCUUUCCCUUAAUUCCUAUUCUGAUGACACUUUGGACAUGAAUUCAAGGGGCAGAUGAAUUUUUGGCAUUGUGUUUUUUCUUACUCAAAAUCUGUUUAUUGGGUUGGAAUUCUCGGGUGCCAA,0.558
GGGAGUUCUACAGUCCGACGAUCGCUUACUGGAGAUGCACAGAGAAACAUGGCUGAAAACAGCUUUAAAAAGAACAUGUCUUUGGGUUCAUGUGUGGUGCUGCUGCCCGGGUGUAAACUAUCCCCACCCAGGGUGGAAUUCUCGGGUGCCAA,0.42
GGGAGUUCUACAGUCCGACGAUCACCUCACAGCCACCCUGAGGCUCUCUGACCCUGGGAUGCUGAGGCCUUCUUAGCCUCUAGGUACAGUCUGUAGGAUGGAAAGCUUUUAGGAGUGGGCAGGGCCGAAUGGAUGGAAUUCUCGGGUGCCAA,0.353
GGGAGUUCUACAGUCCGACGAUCUUGAGGAAAACUUGACUGUCAGGCUAGCUGACUCUAGCUUUAUUUCUGCUGCCAGGAAGCACAGUUUAAAAAUGCUAGUCUGGAUACAGAGAUGUUUUUGUUGCAUUGUGUGGAAUUCUCGGGUGCCAA,1.38
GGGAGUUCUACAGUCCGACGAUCAGGAGGAAAAACAGACAAAAACAGCCUCACAGAAGAAUAUGACAGCUGUCCCUGUCACCAAGCUCACAGUUCCUCGCCCUGGGUCUAAGGGGUUGGUUGAGGUGGAAGCCUGGAAUUCUCGGGUGCCAA,0.384
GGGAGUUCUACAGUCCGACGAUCCUCGCCAAGUUGAAGAGUCAAGUGCAGCCCCAGUGAAUUUCUUGUAAUGCAGCUUCCACUCCUCUCAUUGGAGGCCCUAUUUGGGAACACUGCAAGCCCUUAAUCAGCCCUGGAAUUCUCGGGUGCCAA,0.348
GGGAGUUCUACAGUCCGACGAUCAGGGUGAAUAAAGUUUAGGGAGCUGGGACACCUGGUCCUGCUAGCUGGACCACUGGCUCAUCAUGCAAUGAAAAGGUGAGCAGACUUAACCCCUCCGUGCCUCAGCUUUUUGGAAUUCUCGGGUGCCAA,1.17
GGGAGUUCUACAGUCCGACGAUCUGGGCACCUGGCCUCCAGGAGUCGCUGUGUUGGGAGAGCCGGCCACGCCCUUGGCUUUAGAGCUGUGUUGAAAUCCAUUUUGGUGGUUGGUUUUUAACCCAAACUCAGUGUGGAAUUCUCGGGUGCCAA,0.567
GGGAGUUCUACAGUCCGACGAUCAUGCACACGUAUGUUUAUUGUGGCAUUAUUCACAAUAGCAAAGACUUGGAACCAACCCAAAUGUCCAACAAUGAUAGACUGGAUUAAGAAAACGUGGCACAUAUACACCAUGGAAUUCUCGGGUGCCAA,0.899
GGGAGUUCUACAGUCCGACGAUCUAGACCGGAGCGCAUGCUGGCUAUUACUGAACACGGCCAUACUUGAGAAACAAAGUCUACUGUGUAUUUGACAGCUAUUUAUCACCAAGACAACUGUAAAGAAAUCAAGCUGGAAUUCUCGGGUGCCAA,8.31
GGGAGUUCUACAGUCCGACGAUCUUACCAAAGUAUAAAUUUAUUUCUUAAAAUGUGAGUAAUAGGAAUUUUAAAGAUUUAUAUAAUGCUUUUGAACACUCUGAGAAAGGGUUGUUUUUUUUCAUUGGGUUAAUUGGAAUUCUCGGGUGCCAA,0.516
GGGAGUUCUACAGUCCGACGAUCAGCCAUGAGAGUGAGGACUUUCCGCGCCCAUUGGUGACCCUUCCAGGCAGACAGCCUCAGCAACGCCCCUGGUGGACAGGAUGGUUCGGCAAAGCAGCCUGAGUUAUUUUUGGAAUUCUCGGGUGCCAA,0.205

# Series 2 — technique: RNA Bind-n-Seq; molecule type: RNA; sample: in vitro; concentration: not given; relative to: input RNA pool; direction: higher = stronger binding
# Target: RING finger protein unkempt homolog, zinc fingers 1-6, GST-SBP tag (UNK, Homo sapiens, UniProt Q9C0B0, residues 30-357)
# Notes: RNA with constant flanks, human-mouse chimeric sites, ends assumed
# Residues (chain): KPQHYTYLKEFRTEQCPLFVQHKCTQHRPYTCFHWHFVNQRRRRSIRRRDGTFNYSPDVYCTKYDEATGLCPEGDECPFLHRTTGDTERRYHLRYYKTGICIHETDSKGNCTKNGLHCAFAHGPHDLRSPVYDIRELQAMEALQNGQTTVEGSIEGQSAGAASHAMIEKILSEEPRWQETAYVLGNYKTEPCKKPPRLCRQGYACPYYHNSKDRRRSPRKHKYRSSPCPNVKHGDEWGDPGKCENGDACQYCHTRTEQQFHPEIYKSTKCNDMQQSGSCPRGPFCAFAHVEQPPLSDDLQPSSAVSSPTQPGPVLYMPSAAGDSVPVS
Sequence,bound/input enrichment
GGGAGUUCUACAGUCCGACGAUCUCCCUGUUGCUGAAUAAAUGGCUUGUAAAGAAGUUUUUCCAAGCUGUAACCCAUGCUGUUAUUAUAGUUGCUGCAAAAUGUUCUUCCUGAUAUUGAUGUUUGUUUACAACUGAAGGUCUCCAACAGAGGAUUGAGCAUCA,0.335 ratio
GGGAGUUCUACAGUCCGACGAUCUGUAGUUUCUUGAUUUAGUGGCUGGGCCUUUUCUUUCUUUCCUUUAGGAAAAGCCUAAAGAUUAGGUUGUAAGAAAAGAAAAUAGAAUGUUUCGAAGACCUGUGUUACAGGUAUUUCGUCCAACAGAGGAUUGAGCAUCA,2.29 ratio
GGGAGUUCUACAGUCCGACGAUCUCAUUUUUCUCUUUUCUUUCUUUCCUUAAAAGCCUAACUAAAGAUUAGGUUGUAAGAAAAACAGAAGCCAUGUUUCGAAGACCUGUGUUACAGGUACUUCGUCAGUUUGUAAGACAUGAGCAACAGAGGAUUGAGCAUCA,0.159 ratio
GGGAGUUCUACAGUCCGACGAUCAUGGAACAUUUCGAUGCGUCACUCAGUACCUAUUUCAAGGCCUUCCUGGGCCCCCGAGAUACAAGAGUCAAAGGAUGGUUUCUUCUGGACAAUUACAUCCCUACGUUUAUCUGCUCUGUUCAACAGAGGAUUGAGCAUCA,0.0856 ratio
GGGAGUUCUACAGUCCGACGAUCAGUACUGACUCAGGCGGAUUUUGCAACACCAAGCUCACAGCAGCAGCAUCUUAGUCACAGUAGGGUAGUUUUGGGGCUCUGUGGCCAGGGUUUUAUUCACAUGCAGGUUUGGAAAAUGUACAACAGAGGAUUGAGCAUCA,2.03 ratio
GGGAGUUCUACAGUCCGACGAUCAAAGAACUACUGAGGCAAGGCAGCAAAUUUAGGAGAGACAUUUCAACAAUAUUGAUAGAGUUAGGAUUCCAAAUUAAAAAGAAAACUAAAAGAUUGUACAUCAACAAAGCCAAUGUGUGGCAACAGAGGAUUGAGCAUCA,7.62 ratio
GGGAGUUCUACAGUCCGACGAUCCACGUGUCUGCAGUACUUGAUGUGGACUACUCUCCCACUGGGAAGGAAUUUGUGUCUGCCAGCUUUGAUAAGUCUAUUAGAAUCUUUCCUGUAGACAAGAGCCGAAGCAGGGAAGUGUAUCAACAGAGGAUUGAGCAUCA,0.466 ratio
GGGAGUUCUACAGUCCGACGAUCCAGCCUCAGAGCCCAGACUUCCUGGAUAUUACCAACCCUAAAGCGGUAUUAGAAAAUGCAUUGAGAAACUUCGCCUGUCUGACGACUGGGGAUGUGAUUGCUAUCAACUAUAAUGAAAAGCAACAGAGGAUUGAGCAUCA,0.52 ratio
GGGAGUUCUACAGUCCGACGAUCCUGAGGAUACCACUGAAGAGACCUUAAAAGAAUCAUUUUGACGGCUCGUUCGUGCAAGAAUAGUCACCUGACCGGGAACUGGUUCUUCCAAAGGGUUUGGUUUUGUAGACUUUAAUAGUGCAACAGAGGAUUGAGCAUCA,0.645 ratio
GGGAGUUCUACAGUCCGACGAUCUCAUUUUUCUCUUUUCUUUCUUUCCUUUAGGAAAAGCCUAAAGAUUAGUAAGAAAAGAAAAUAGAAGCCAUGUUUCGAAGACCUGUGUUACAGGUAUUUCGUCAGUUUGUAAGACAUGAGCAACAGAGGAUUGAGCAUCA,0.305 ratio
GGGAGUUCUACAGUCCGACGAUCGACUUUGGGACUGGUCCUCGCAACGCAGCCUUCUAUAGCCCUCAUGGACAUAUAUUAGUAUUAGCUGGAUUUGGAAAUCUUCGAGGACAAAUGGAAGUAUGGGAUGUGAAAAACUACAAGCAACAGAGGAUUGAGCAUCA,0.651 ratio

# Series 3 — Molecule: B1 (RNF24 RING domain); technique: yeast two-hybrid; sample: yeast; notes: mostly zero background; relative to: not given; direction: higher = stronger interaction
# B1: RNF24 RING domain (UniProt Q9Y225); chain KVKELNLHELCAVCLEDFKPRDELGICPCKHAFHRKCLIKWLEVRKVCPLCNMPVLQLAQLH
target,lacZ reporter activity
UBE2Z UBC core domain (UniProt Q9H832),0
UBE2S UBC core domain (UniProt Q16763),0
UBE2I UBC core domain (UniProt P63279),0
UBE2Q1 UBC core domain (UniProt Q7Z7E8),0
UBE2O UBC core domain (UniProt Q9C0C9),0
UBE2D1 UBC core domain (UniProt P51668),0
UBE2R2 UBC core domain (UniProt Q712K3),0
UBE2J1 UBC core domain (UniProt Q9Y385),0
UBE2L3 UBC core domain (UniProt P68036),0

# Series 4 — technique: protein-binding microarray; molecule type: double-stranded DNA, one strand shown; sample: in vitro; concentration: 2540 nM top; notes: 60-bp whole probe; together with: salmon DNA 0.4 mg/ml; relative to: random background probes; direction: higher = stronger binding; all sequences stand within: GCCTAGCAC … GTCTTGATTCGCTTGACGCTGCTG
# Target: Interferon regulatory factor 3, full length, phosphomimetic (IRF3, Homo sapiens, UniProt Q14653, residues 1-427, S386D/S396D/S398D/S402D/T404D/S405D)
# Residues (chain): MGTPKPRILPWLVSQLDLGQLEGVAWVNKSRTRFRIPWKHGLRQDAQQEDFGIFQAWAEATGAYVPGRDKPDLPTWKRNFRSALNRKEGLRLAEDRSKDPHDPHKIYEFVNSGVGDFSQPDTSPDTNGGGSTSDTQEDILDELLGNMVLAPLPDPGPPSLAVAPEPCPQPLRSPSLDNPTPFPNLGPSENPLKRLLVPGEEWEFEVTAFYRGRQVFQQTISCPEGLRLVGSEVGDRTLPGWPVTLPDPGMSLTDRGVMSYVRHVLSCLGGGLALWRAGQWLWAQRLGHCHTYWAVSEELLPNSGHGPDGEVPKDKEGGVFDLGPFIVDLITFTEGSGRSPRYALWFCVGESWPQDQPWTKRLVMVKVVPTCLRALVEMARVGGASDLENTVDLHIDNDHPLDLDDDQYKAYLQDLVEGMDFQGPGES
Sequence,fitted relative affinity
AATGTTTTGTTTTTCATTATGTGCTAG,3.58 z-score
GACGATATCGGGACTGGATACGTGCTA,0.31 z-score
TGTGTCTGGAATTTTTAGAAGTGCTAG,-0.257 z-score
TTAAAACTGAGTTTCGATTAGTGCTAG,2.74 z-score
TCAGTTTTGTGTGTGTGACTGTGCTAG,0.668 z-score
GACGGACTGGGCATCGGGACGTGCTAG,-1.01 z-score
GGCGGTTTCCTACTGCTGACGTGCTAG,5.35 z-score
GAAGGTTTCGACTTTCGGGACGTGCTA,3.3 z-score
GAAGATTTCAGTTCCGAGACGTGCTAG,2.84 z-score
GACGGTTTGGGGTTTCGGGACGTGCTA,1.1 z-score
GACGGTTCCAGTTTCGGGACGTGCTAG,5.15 z-score
TTAGATTTCGGGTTTCGCTTAGTGCTA,2.76 z-score
TTAGGTTTCGGACTGGGTTAGTGCTAG,4.22 z-score
TAGAGGGAGTAAAGGAAAGAGTGCTAG,-0.724 z-score
GACGGACTTGGGTATCGGGACGTGCTA,-0.377 z-score
TCAAGTCCCAAGAATGGTACTGTGCTA,-0.499 z-score
TTAGATTTCTGGTTTCGATTAGTGCTA,3.05 z-score
TTAGGACTAGACTATCGGTTAGTGCTA,-0.37 z-score

# Repeated from above (series 3):
target,lacZ reporter activity
UBE2Q1 UBC core domain (UniProt Q7Z7E8),0
UBE2O UBC core domain (UniProt Q9C0C9),0
UBE2D1 UBC core domain (UniProt P51668),0
UBE2R2 UBC core domain (UniProt Q712K3),0
